# Measured values gathered from unrelated publications.
# Each numbered part is a random draw from the data of one study; scales do not carry over between parts.

# Sample 1 — method: protein-binding microarray; form: double-stranded DNA, one strand shown; sample: in vitro; tested at: 0.8 µM; notes: whole 60-bp probe, no competitor; reading: higher = stronger binding; shared flanks, not repeated: … GTCTTGATTCGCTTGACGCTGCTG
# Target: Centromere-binding protein 1, full length, N-terminal tag (CBF1, Saccharomyces cerevisiae, UniProt P17106, residues 1-351)
# UniProt P17106, sequence (whole entry, looked up): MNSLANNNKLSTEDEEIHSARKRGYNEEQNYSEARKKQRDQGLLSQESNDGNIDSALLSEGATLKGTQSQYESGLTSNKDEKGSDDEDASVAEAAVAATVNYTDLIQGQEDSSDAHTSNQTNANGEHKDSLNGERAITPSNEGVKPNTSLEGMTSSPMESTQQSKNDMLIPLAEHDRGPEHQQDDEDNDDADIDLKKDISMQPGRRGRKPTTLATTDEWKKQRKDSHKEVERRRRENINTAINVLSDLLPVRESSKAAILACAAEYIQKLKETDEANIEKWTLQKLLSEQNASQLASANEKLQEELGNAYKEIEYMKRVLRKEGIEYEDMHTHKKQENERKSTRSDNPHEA
Oligonucleotide,fluorescence intensity
GAATCGGCATGTCATCACCAGCGAGTTCGCCGGTAG,486 a.u.
GAAGGTAGTGGCGGTGGTGGTGGCGGCATCCCTTAG,493 a.u.
GAATTCCGAGATCATCACGGGATTTGTCACGCATAG,1630 a.u.
CCTAACTACTATACCAACGTGACATAGCTTCGTACA,1620 a.u.
CTACTCGCAGACCATGTGACCGCCGGTACTCCTTTC,7080 a.u.
GAATAACCTGCTCTACACCTGACTCACATGACATAG,2470 a.u.
CTACAGATGATTTTTCACATGATTTTTGTTAGATTC,754 a.u.
CTAAAAGAAAAAAGTCACGCAAAGTTGCAAACATTC,596 a.u.
CTATACCATGTGCGCCACGAGGCCTCAAACGTATTC,826 a.u.
GAATGTACGTAAGATCACATGATCGTATACTGTTAG,7010 a.u.
GAACATCCTAACGAGCACATGTCGGTGGACCAATAG,747 a.u.
CTATATTATATATGCCACATGACTGCAGGGTCCTTC,1580 a.u.
TGTACGAAGCTATGGCACGCGCATATAGTAGTTAGG,1050 a.u.
TGTACGAAGCTATCACACGTGAATATAGTAGTTAGG,2170 a.u.
CTAAATAGAATCTTTAATGATCACAGTGGATCTTTC,538 a.u.
CTACCTTGTAAATTTCACATGCTCGACCGTTTATTC,605 a.u.
TGTACGAAGCTATTAATCGTGCTTATAGTAGTTAGG,518 a.u.
GAATGTTGTAAAGATCATCAGAAAAAGAGTTAATAG,516 a.u.
GAACTCCCACCATTGAACGTGATTATGACTTCCTAG,880 a.u.
CCTAACTACTATATGCACGGGGAATAGCTTCGTACA,584 a.u.
GAATACCTGTTAAATATCGTGAAATTGTGCTGCTAG,530 a.u.
GAACTGCTCGATAGACCGATCACGTTTAATTTTTAG,2860 a.u.

# Sample 2 — method: RNA Bind-n-Seq; form: RNA; sample: in vitro; tested at: 1 µM; notes: whole 134-nt RNA, ends assumed; with: 150 mM KCl; reference: input library; reading: higher = stronger binding
# Target: Ras GTPase-activating protein-binding protein 1, C-terminal RGG region (G3BP1, Homo sapiens, UniProt Q13283)
# UniProt Q13283, sequence (whole entry, looked up): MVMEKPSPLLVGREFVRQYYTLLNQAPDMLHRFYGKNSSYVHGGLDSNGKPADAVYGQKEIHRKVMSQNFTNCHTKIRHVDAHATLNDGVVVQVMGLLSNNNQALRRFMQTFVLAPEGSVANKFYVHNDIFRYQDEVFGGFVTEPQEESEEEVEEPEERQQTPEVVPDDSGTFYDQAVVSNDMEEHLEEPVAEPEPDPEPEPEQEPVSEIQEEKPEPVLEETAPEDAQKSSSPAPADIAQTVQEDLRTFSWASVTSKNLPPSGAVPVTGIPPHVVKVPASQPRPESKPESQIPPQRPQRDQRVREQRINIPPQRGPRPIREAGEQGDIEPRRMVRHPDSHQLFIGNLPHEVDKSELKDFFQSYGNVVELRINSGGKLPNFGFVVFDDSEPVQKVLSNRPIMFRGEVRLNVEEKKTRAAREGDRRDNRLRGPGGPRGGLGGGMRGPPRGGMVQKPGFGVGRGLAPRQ
# Shared flanks, not repeated: GGGAGUUCUACAGUCCGACGAUC … UGGAAUUCUCGGGUGUCAAGG
Oligonucleotide,log2 enrichment
CACAGACAACACGCACCCACACAGACACAGAGGGCAGGGGUUGGGAUGGGGACAGGGUGCACAGCAGGGCGGGGUAGGACCCCAGCCCCU,-0.0209
UGGCCCUGGUGGCAUGCGGGGAGGAAGAGGUGGCCUUAUGGAUCGUGGUGGUCCCGGUGGAAUGUUCAGAGGUGGCCGUGGUGGAGACAG,2.47
GCAGGAAGUAAAAACAAAUGGAAGUGCUUCGGAUAGUGGCAGGGGUGGGGGUUGCUAAGGAAAGGGUGGGAUGGGAGUGGGUAAAGAGUU,2.53
UCAAGUCCUGUGCUACACAUCGUAUGUACCGAAUCGGUUUGGUUUGGAAAAAGGAAAGUAUUAUGUUACGCCGUUCGGAUCUGCACUUCC,-1.36
GUCCUGUGCUACACAUCGUAUGUACCGAAUCGGGAAAAAGGGGAAAAAGGAAAAAGGGAAAGUAUUAUGUUACGCCGUUCGGAUCUGCAC,-1.24
UCCUGUGCUACACAUCGUAUGUACCGAAUCAAAUUUUUAAACCCCCAAAUUUUUUUAAAAAAGUAUUAUGUUACGCCGUUCGGAUCUGCA,-0.171
UUCCUCAAGUCCUGUGCUACACAUCGUAUGUACCGAAUCGGCGGGCGGCGGAAAGUAUUAUGUUACGCCGUUCGGAUCUGCACUUCCAGC,-0.464
UAACUUAAGAGGAGGAUCUGAUGGAUAUGGCAGUGGACGUGGAUUUGGGGAUGGCUAUAAUGGGUAUGGAGGAGGACCUGGAGGUGGCAA,-0.922
AGUCCUGUGCUACACAUCGUAUGUACCGAAUCGGGGUUUUUUUGGGGUGGGGAGGGGAAAGUAUUAUGUUACGCCGUUCGGAUCUGCACU,2.12
AGUCCUGUGCUACACAUCGUAUGUACCGAAUCGGAAAAAAAGGAAAAAGGUUUUUGGAAAGUAUUAUGUUACGCCGUUCGGAUCUGCACU,-2
UGGGAGGUGGAUUUUGUUUAUUUUUUUAGCUCAUUUCCAGGGGUGGGAAUUUUCUUUUAAUAUGUGUCAUGAAUAAAGUUGUUUUUGAAA,3.35
ACCAUGCAGGUGGGCUUCUUUGGGAAGUGGGGCAAGGGGGGGAUAGGGAGGGGGGUAACACUUUGGGAACAGGUGGUCCCAGGUCGUUUC,-1.36
UGGGAUGUGGAUUUUGUUUAUUUUUUUAGCUCAUUUCCAGGGGUGGGAAUUUUUUUUUAAUAUGUGUCAUGAAUAAAGUUGUUUUUGAAA,4.05
UAACUUUAGAGGAGGAUCUGAUGGAUAUGGCAGUGGAUGUGGAUUUGGGGAUGGCUAUAAUGGGUAUGGAGGAGGACCUGGAGGUGGCAA,-1.23

# Sample 3 — method: protein binding microarray; form: double-stranded DNA, one strand shown; sample: in vitro; tested at: not given; reference: not given; reading: higher = stronger binding
# Target: Histone acetyltransferase KAT6A, both winged helices, GST fusion (KAT6A, Homo sapiens, UniProt Q92794, residues 1-181)
# Notes: 8-mer, flanks averaged, mean of 2 arrays, mostly near background
# Residues (chain): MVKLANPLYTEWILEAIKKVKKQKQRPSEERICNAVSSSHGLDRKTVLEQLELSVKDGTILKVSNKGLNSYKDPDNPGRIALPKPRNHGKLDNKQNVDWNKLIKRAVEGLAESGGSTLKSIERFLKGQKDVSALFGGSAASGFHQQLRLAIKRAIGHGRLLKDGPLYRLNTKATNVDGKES
Oligonucleotide,E-score
CTCAGAAC,0.0268
CCGCATTC,0.224
ATCATCCA,-0.247
GCGGTACC,0.278
AGGAATAG,-0.134
GATCCTTA,-0.174
TGACGACA,-0.0575
ATAATGCG,0.111
AGTAAGCG,0.122
ATGGAAGC,-0.0683
AGAGACAC,-0.173
CAATCACG,0.179
ACGGGGAT,0.108
ATAGTCAT,-0.152
AGGAAGGC,-0.0704
AAAACGAG,-0.00492
ACTACTGG,-0.237
ACGGACCA,0.217
ACAAGGGA,-0.19
AAGCGTGA,0.131

# Sample 4 — method: protein-binding microarray; form: double-stranded DNA, one strand shown; sample: in vitro; tested at: 940 nM top; notes: 60-bp whole probe; with: salmon DNA 0.4 mg/ml; reference: random background probes; reading: higher = stronger binding; shared flanks, not repeated: GCCTAGCAC … GTCTTGATTCGCTTGACGCTGCTG
# Target: Interferon regulatory factor 5, full length, phosphomimetic (IRF5, Homo sapiens, UniProt Q13568-2, residues 1-514, S451D/S453D/S456D/S462D)
Oligonucleotide,fitted relative affinity
GACGATATCCGTATCGAGACGTGCTAG,0.685 z-score
GACGGTGTCGACTTTCGGGACGTGCTA,1.21 z-score
GACGGAATCGGTTTCGGGACGTGCTAG,5.08 z-score
GACGGTCTCGGCCTCGGGACGTGCTAG,1.07 z-score
TTAGAACAGAGTTTCGATTAGTGCTAG,6.07 z-score
GACGGTATCTTTCTCCTGACGTGCTAG,1.5 z-score
TCAATTTTTTTTATCAAACTGTGCTAG,0.476 z-score
GTGTTTCTCAAATGTTTTGTTGTGCTA,1.16 z-score
TTAGGTTTCGGTTTAGGTTAGTGCTAG,16.2 z-score
GACGGACTGGGTTTTGGGACGTGCTAG,-0.146 z-score
TTAGAACTCGGGACTGGATTAGTGCTA,-0.494 z-score
GACGATTTCAGTTTCGAGTCGTGCTAG,7.16 z-score
AACGATATCAGTTTCGAGACGTGCTAG,3.71 z-score
TACGATATCGGGACTGGAGACGTGCTA,-0.316 z-score
TTAGGACCGGGGTTTCGGTTAGTGCTA,5.22 z-score
GACGATCTCAGTATCGGGACGTGCTAG,1.73 z-score
AGCCAGGCAACCTATGGCCTGTGCTAG,-1.04 z-score
TCAGGTATCCTTCTCCTTTAGTGCTAG,0.901 z-score
TTAGGTATCGGGATCGGTTAGTGCTAG,5.01 z-score
TTATAACTGGGGTATCGATTAGTGCTA,3.33 z-score
GACGAACTGGGGTTGCGAGACGTGCTA,0.011 z-score
TTGGATATCGGGACTGGATTAGTGCTA,-0.148 z-score
TTAGGACTGGGGACTGGGTTTGTGCTA,-0.355 z-score
TCAATTTTGCTTTCATTACTGTGCTAG,1.82 z-score
TTAGGGTTCCTTTCCCTTTAGTGCTAG,0.0757 z-score

# A few entries again (sample 3):
Oligonucleotide,E-score
ATGGAAGC,-0.0683
AGAGACAC,-0.173
CAATCACG,0.179
ACGGGGAT,0.108
ATAGTCAT,-0.152
AGGAAGGC,-0.0704
AAAACGAG,-0.00492
ACTACTGG,-0.237
ACGGACCA,0.217
ACAAGGGA,-0.19
AAGCGTGA,0.131
